Published values gathered from unrelated publications.
Each line is one published result; not all experiments were run side by side.
Target: Tyrosine-protein kinase receptor UFO (AXL, Homo sapiens, UniProt P30530)

`CC(C)=CC1OC(C)(C)C2C=C3C(=O)C(Cl)=CC(O)C3C3C(O)C4OC4C(=O)C132` (stereo not shown) has a remaining binding of 97% (cell-free assay, competition with immobilised ligand; 10 µM).
For `COc1ccc(NC(=O)Nc2ccc3c(c2)C(=O)N(C(C)CO)CC(C)C(CN(C)Cc2ccc4c(c2)OCO4)O3)cc1` (stereo not shown), the remaining binding was 84% (binding, competition with immobilised ligand; 10 µM).
The inhibition of `Cc1[nH]nc2c1N=C(c1ccccc1Cl)c1cnc(N3CCOCC3)cc1N2` is reported as 5.1% (enzyme activity, inhibitor; 0.5 µM).
`C[C@]1(O)CCCN(c2nc(Nc3ccc(S(=O)(=O)N[C@H]4CC[C@H](CN5CCN(c6ccc(C7CCC(=O)NC7=O)cc6F)CC5)CC4)cc3)ncc2C(F)(F)F)C1` (stereo partly shown) gave a remaining binding of 0.4% (binding, competition with immobilised ligand; 1 µM).
The inhibition of `C=CC(=O)Nc1cccc(-c2cnc3[nH]cc(C(=O)NC(C)(C)C)c3n2)c1` is reported as 27% (enzyme activity, inhibitor; 0.1 µM).
`NC(=O)[C@@H](O)C[C@H]1CCc2sc3ncnc(O[C@H]4CC[C@H](N5CCOCC5)CC4)c3c21` has an inhibition of 15% (enzyme activity, inhibitor; 10 µM).
`CNC(=O)C[C@H](Cc1ccc(C#N)cc1)NC(=O)c1cc(-c2ccc(CN[C@H](C)c3ccc(C)cc3)o2)ccc1Cl` — result for “activity vs control”: 96% (enzyme activity, inhibitor; 1 µM).
`CCn1cc(C(=O)O)c(=O)c2c(N)c(F)c(NC3CCCCC3)cc21` gave an inhibition of 5.6% (kinase activity; 0.1 µM, added: ATP at Km).
The remaining binding of `CC(=O)N1c2ccc(-c3ccc(CNC(=O)c4cn5cc(-c6cnc(N)nc6)nc(N6CCOCC6)c5n4)cc3)cc2CC[C@@H]1C` is reported as 33% (binding, competition with immobilised ligand; 10 µM).
`COc1c(OCCCN2CCOCC2)ccc2c1N=C(NC(=O)c1cnc(N)nc1)N1CCN=C21` gave a remaining activity of 91% (kinase activity, inhibitor; 1 µM; baseline: untreated control).
With `COc1cc(Nc2nc(C)cc(-c3cnn4nc(OC)ccc34)n2)cc(C(F)(F)F)c1` the remaining activity was 100% (inhibitor; 1 µM; baseline: control).
`CNC1C[S+]2CC[S+]3CC[S+](C1)[Ru-4]321([N]=C=S)[n]2c3ccc(OC)cc3c3c4c(c5cc(F)c[n+]1c5c32)C(=O)NC4=O` (stereo not shown) gave a remaining binding of 95% (KinomeScan; 0.1 µM; baseline: untreated).
`C=CC(=O)N1CCCC(n2c(=O)c3ncccc3n(Cc3ccc(Oc4ccccc4)cc3)c2=O)C1` (stereo not shown) has a remaining binding of 84% (cell-free assay, competition with immobilised ligand; 1 µM).
`C=CC(=O)N1Cc2nc(-c3cc(-c4cc(Cl)cnc4Cl)c(F)cc3F)n(-c3ccncn3)c2C1` has an inhibition of -0.9% (cell-free assay; 1 µM).
The inhibition of `O=C(Nc1ccc(Oc2ncnc3[nH]cc(-c4ccccc4)c23)c(F)c1)c1c2n(n(-c3cc(F)ccc3F)c1=O)CCCC2` is reported as 93% (enzyme activity, inhibitor; 0.5 µM).
`C=CC(=O)N1CCc2ccc(-n3c(=O)ccc4cnc5ccc(-c6cnn(C)c6)cc5c43)cc21` has a remaining binding of 100% (KINOMEscan; 1 µM; baseline: DMSO control).
With `Cc1cccc(O[C@H]2CCC[C@@H](C(C)CNCc3ccncc3)C2)c1` (relative stereo) the inhibition was -3% (cell-free assay; 10 µM).
The remaining binding of `Cc1cnc2nc1Nc1cccc(c1)COC/C=C/COCc1cc(ccc1OCCN1CCOCC1)N2` is reported as 44% (binding; 0.1 µM).
With `CN1CCN(Cc2ccc(NC(=O)c3cccc(C#Cc4cnc(N)c5ncccc45)c3)cc2C(F)(F)F)CC1` the remaining binding was 54% (cell-free assay, competition with immobilised ligand; 50 nM).

Repeated from above:
`CNC(=O)C[C@H](Cc1ccc(C#N)cc1)NC(=O)c1cc(-c2ccc(CN[C@H](C)c3ccc(C)cc3)o2)ccc1Cl` — result for “activity vs control”: 96% (enzyme activity, inhibitor; 1 µM).
`CCn1cc(C(=O)O)c(=O)c2c(N)c(F)c(NC3CCCCC3)cc21` gave an inhibition of 5.6% (kinase activity; 0.1 µM, added: ATP at Km).
